Results from different studies.
Each numbered part is a random draw from the data of one study; scales do not carry over between parts.

Sample 1
Target: RNA binding protein fox-1 homolog 2, RRM domain, GST-SBP tag (RBFOX2, Homo sapiens, UniProt O43251-10, residues 100-194)
Method: RNA Bind-n-Seq
Form: RNA
Medium: in vitro
Tested at: 365 nM
Notes: natural RNA segment, single round, ends assumed
Relative to: no-protein control
Reading: higher = stronger binding
All sequences stand within: GGGAGUUCUACAGUCCGACGAUC … UGGAAUUCUCGGGUGCCAA
Under “RBNS enrichment (R)”, `GGGUCCUUUUCCUUCACCAGCAGUGGGAUAUUCGGAACAGAACCUCCUGCUUUCUGCCCAAGAGUGUGUGUAUGAGGUAAAUCUGUGGCAUAAUGUACCAUUGGCUCACA` is recorded as 0.37.
Under “RBNS enrichment (R)”, `UUCCUCACCUGCCCCUGCCCUACCUUACACCCCCAGCUUGACUUCUUUCCAGUCCACGUGUGUAUAUAAUGAUAUCUAUAUUUUUGCCCAGGUCUGGGUAUUGCUCCUGC` is recorded as 0.838.
`CCAGUUUAUUAGUUUAAAUCAGUACUUUGCAUAUAAUAAGCAUUCAACAAAAAUUUAUUGACUGAAAUGAAUUUUAAAUGCAUGUGUAUGAACUUGUUUUUCUUAAUCUU` — result for “RBNS enrichment (R)”: 1.33.
`UCUCAUACAUUUUGAGACCCUUGGGUCAUUUAUUACUUUUUACAAACUAGUUCCUCUCUUUUUUUCUGCCAAGUCCUGAAUUGAAAACUGUAGGCUUCCUUGCACAGAUG`: “RBNS enrichment (R)” 1.78.
`GAACUUUUUUGUAAUAUACAUGUAUGAAUUGUUCAUCGAGUUUUUAUAUUAAUUUUAAUUUGCUGCUAAGCAAAGACUAGGGACAGGCAAAGAUAAUUUAUGGCAAAGUG` — result for “RBNS enrichment (R)”: 0.614.
Under “RBNS enrichment (R)”, `AAACUGGAAAAAAAGAAAAAGAAAAAUAUGACUAUUAGAUUUCCAGGUAUAGAACUGUGUUCUUUGAGAGGGAAAAGAAAUAUGGUGUUUCCUUUUAGACACAAACAAUA` is recorded as 0.829.

Sample 2
Target: Interferon regulatory factor 5, full length, phosphomimetic (IRF5, Homo sapiens, UniProt Q13568-2, residues 1-514, S451D/S453D/S456D/S462D)
Method: protein-binding microarray
Form: double-stranded DNA, one strand shown
Medium: in vitro
Tested at: 940 nM top
Notes: 60-bp whole probe
Added: salmon DNA 0.4 mg/ml
Relative to: random background probes
Reading: higher = stronger binding
All sequences stand within: GCCTAGCAC … GTCTTGATTCGCTTGACGCTGCTG
`CTAGATATCAGTCTCGATTAGTGCTAG` — result for “fitted relative affinity”: 2.85 z-score.
For `GATGGCAGTGGAAATTTTACGTGCTAG`, “fitted relative affinity” read -0.647 z-score.
Under “fitted relative affinity”, `TTAGACCTGAGTCTCGATTAGTGCTAG` is recorded as 2.56 z-score.
`TAAGGTATCGACACTGGGTTAGTGCTA` — result for “fitted relative affinity”: 2.8 z-score.
Under “fitted relative affinity”, `TCAAGCCTCTGTTTTGAACTGTGCTAG` is recorded as -0.532 z-score.
`GGAGAGTTCCAGGAGGTCGAGTGCTAG` — result for “fitted relative affinity”: -0.434 z-score.
Under “fitted relative affinity”, `TTCACTTTAACTTATTCTCTAGTGCTA` is recorded as 1.14 z-score.
For `GACGGTATCGGGCTGGGGACGTGCTAG`, “fitted relative affinity” read 3.14 z-score.
`TTAGAAATCAGTCTCGATTAGTGCTAG` — result for “fitted relative affinity”: 3.66 z-score.
For `TTAGGTTTCGGGTTTCTGTTAGTGCTA`, “fitted relative affinity” read 10.4 z-score.

Sample 3
Target: Histone acetyltransferase KAT6A, both winged helices, GST fusion (KAT6A, Homo sapiens, UniProt Q92794, residues 1-181)
Method: protein binding microarray
Form: double-stranded DNA, one strand shown
Medium: in vitro
Tested at: not given
Notes: 8-mer, flanks averaged, mean of 2 arrays, mostly near background
Relative to: not given
Reading: higher = stronger binding
Target sequence (chain): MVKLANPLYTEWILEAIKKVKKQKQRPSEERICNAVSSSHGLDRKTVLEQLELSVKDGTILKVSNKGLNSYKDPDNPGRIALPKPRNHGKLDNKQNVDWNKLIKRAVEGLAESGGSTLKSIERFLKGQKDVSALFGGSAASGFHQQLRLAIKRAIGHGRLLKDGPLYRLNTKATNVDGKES
For `GCGGTCGA`, the E-score was 0.219.
For `ACACCTGT`, the E-score was -0.0602.
`ACGGGTAC` gave an E-score of 0.218.
`ACCGAGCA` gave an E-score of -0.0139.
`CGCATGAA` gave an E-score of 0.145.
For `CCAAGCCC`, the E-score was -0.0269.
`CCGAGTTA` gave an E-score of 0.022.

Other studies, line by line
`PhoQ, residues 284 288 289 292 302 303 SMMNNA` gave a fold induction of 6.08 (PhoP, residues 12 14 15 18 19 SMASL (Escherichia coli, UniProt P23836); Sort-seq, item: YFP reporter; E. coli; PhoQ-PhoP variant library, added: 10 µM Mg2+; relative to: high Mg2+ state, higher = stronger signaling).

For quick reference, copied from above (sample 1):
Under “RBNS enrichment (R)”, `UUCCUCACCUGCCCCUGCCCUACCUUACACCCCCAGCUUGACUUCUUUCCAGUCCACGUGUGUAUAUAAUGAUAUCUAUAUUUUUGCCCAGGUCUGGGUAUUGCUCCUGC` is recorded as 0.838.
`CCAGUUUAUUAGUUUAAAUCAGUACUUUGCAUAUAAUAAGCAUUCAACAAAAAUUUAUUGACUGAAAUGAAUUUUAAAUGCAUGUGUAUGAACUUGUUUUUCUUAAUCUU` — result for “RBNS enrichment (R)”: 1.33.
`UCUCAUACAUUUUGAGACCCUUGGGUCAUUUAUUACUUUUUACAAACUAGUUCCUCUCUUUUUUUCUGCCAAGUCCUGAAUUGAAAACUGUAGGCUUCCUUGCACAGAUG`: “RBNS enrichment (R)” 1.78.
